Results from different studies.
Every numbered part comes from another study and shows a few of its results, in no order.

Series 1
Target: Max dimerization protein 1, bHLH-zipper, MAX partner unstated (MXD1, Homo sapiens, UniProt Q05195, residues 56-136)
Method: protein-binding microarray
Form: double-stranded DNA, one strand shown
Medium: in vitro
Concentration: not given
Setting: k-mer, scored over probes, only values ≥0.25
Direction: higher = stronger binding
Quantity: E-score
Residues (chain): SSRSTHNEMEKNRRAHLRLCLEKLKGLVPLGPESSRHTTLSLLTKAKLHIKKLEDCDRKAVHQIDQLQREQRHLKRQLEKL
CATGGGGA: 0.373
AAAGCACG: 0.329
CGTGTAAG: 0.272
CAGCGTGG: 0.389

Series 2
Target: Fragile X messenger ribonucleoprotein 1, C-terminal low-complexity region (Fmr1, Mus musculus, UniProt P35922)
Method: RNA Bind-n-Seq
Form: RNA
Medium: in vitro
Concentration: 200 nM
Setting: whole 134-nt RNA, ends assumed
Added: 150 mM LiCl
Reference: input library
Direction: higher = stronger binding
Quantity: log2 enrichment
Each molecule: 7-deaza-guanosine replaces G
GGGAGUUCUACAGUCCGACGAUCAGUCCUGUGCUACACAUCGUAUGUACCGAAUCGGGUGGGAAAAAGGGUUUUUUUGGGAAAGUAUUAUGUUACGCCGUUCGGAUCUGCACUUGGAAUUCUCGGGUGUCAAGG: -1.97
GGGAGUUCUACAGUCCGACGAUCCCUGUGCUACACAUCGUAUGUACCGAAUCGGGGAAAAAAAGGGGUUUUUUUGGGGUGGGGAAAGUAUUAUGUUACGCCGUUCGGAUCUGCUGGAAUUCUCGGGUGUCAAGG: -1.3
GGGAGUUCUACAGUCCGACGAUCUGGGAGGUGGAUUUUGUUUAUUUUUUUAGCUCAUUUCCAGGGGUGGGAAUUUUUUUUUAAUAUGUGUCAUGAAUCAAGUUGUUUUUGAAAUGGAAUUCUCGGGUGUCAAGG: 0.527
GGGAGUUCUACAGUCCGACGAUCUAACUUUAGAGGAGGAUCUGAUGGAUAUGGCAGUGGACGUGGAUUUGGGGAUGGCUAUAAUGGGUACGGAGGAGGACCUGGAGGUGGCAAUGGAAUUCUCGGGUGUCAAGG: -0.202
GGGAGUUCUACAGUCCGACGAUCCACAGACAACACGCACCCACACAGACACAGAGGGAAGGGGUUGGGAUGGGGACAGGGUGCACAGCAGGGCGGGGUAGGACCCCAGACCCUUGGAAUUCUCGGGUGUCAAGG: -1.13
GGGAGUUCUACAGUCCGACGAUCCCUCAAGUCCUGUGCUACACAUCGUAUGUACCGAAUCGGGUGGGGUGGGUGGGAAAGUAUUAUGUUACGCCGUUCGGAUCUGCACUUCCAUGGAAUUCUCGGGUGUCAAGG: -0.49

Series 3
Target: Sal-like protein 4, full length isoform B (SALL4, Homo sapiens, UniProt Q9UJQ4-2, residues 1-616)
Method: universal PBM
Form: double-stranded DNA, one strand shown
Medium: in vitro
Concentration: not given
Setting: 8-mer, flanks averaged, mean of replicates
Direction: higher = stronger binding
Quantity: E-score
Residues (chain): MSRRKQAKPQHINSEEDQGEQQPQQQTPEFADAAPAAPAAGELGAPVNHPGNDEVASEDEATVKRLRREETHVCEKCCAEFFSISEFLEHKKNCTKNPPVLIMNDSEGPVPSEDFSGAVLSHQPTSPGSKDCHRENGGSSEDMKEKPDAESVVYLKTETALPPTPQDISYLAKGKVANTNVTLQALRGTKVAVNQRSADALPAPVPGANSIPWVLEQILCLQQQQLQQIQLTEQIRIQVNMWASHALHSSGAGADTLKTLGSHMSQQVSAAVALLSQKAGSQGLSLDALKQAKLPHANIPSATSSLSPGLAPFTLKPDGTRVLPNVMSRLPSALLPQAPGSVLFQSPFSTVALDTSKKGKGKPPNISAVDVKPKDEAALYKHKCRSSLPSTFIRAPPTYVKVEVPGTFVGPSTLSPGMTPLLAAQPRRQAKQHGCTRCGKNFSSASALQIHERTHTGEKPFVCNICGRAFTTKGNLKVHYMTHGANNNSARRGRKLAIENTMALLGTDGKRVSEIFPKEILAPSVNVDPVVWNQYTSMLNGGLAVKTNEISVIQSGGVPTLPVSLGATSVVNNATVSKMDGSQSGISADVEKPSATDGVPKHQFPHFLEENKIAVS
ACTTAAAG: 0.0756
GTTTAGGA: -0.0955
GGATTACC: -0.0833
AACTGAAA: 0.229
GCTAATTA: 0.138
CAACGCTC: -0.0981
ATCAATTC: 0.154

Further values, each from its own experiment
PhoQ, residues 284 288 289 292 302 303 SLANIV  fold induction (PhoP, residues 12 14 15 18 19 LHSVW (Escherichia coli, UniProt P23836); Sort-seq, refers to: YFP reporter; E. coli; PhoQ-PhoP variant library, added: 10 µM Mg2+; reference: high Mg2+ state, higher = stronger signaling): 7.32
